# Results from different studies.
# Parts stem from different laboratories: compare values within a part only.

# Series 1 — method: protein-binding microarray; form: double-stranded DNA, one strand shown; matrix: in vitro; concentration: 940 nM top; setting: 60-bp whole probe; added: salmon DNA 0.4 mg/ml; relative to: random background probes; direction: higher = stronger binding; constant ends, left off below: GCCTAGCAC … GTCTTGATTCGCTTGACGCTGCTG
# Target: Interferon regulatory factor 5, full length, phosphomimetic (IRF5, Homo sapiens, UniProt Q13568-2, residues 1-514, S451D/S453D/S456D/S462D)
Oligonucleotide,fitted relative affinity
GACGGACTGGGGTTTCGGGTCGTGCTA,3.82 z-score
GACGGTTTCAGTATCGAGACGTGCTAG,6.71 z-score
TTAGGTATCGACTATTGGTTAGTGCTA,4.91 z-score
GACGATTTCGGGATTCGAGACGTGCTA,0.482 z-score
TCATCTCTAATTTTGAGACTGTGCTAG,0.0836 z-score
TTGTTTCTAATATTCTGCTTGTGCTAG,1.27 z-score
TTAGATCTCAGTATCGATGAGTGCTAG,3.71 z-score
TTTCTTCTAGACTTCTCCATGTGCTAG,3.18 z-score
CACGAACTGAGACTGGAGACGTGCTAG,-0.019 z-score
GACGAACTAAGTATCGAGACGTGCTAG,1.2 z-score
GACGGTTCCCTTTTCCTAACGTGCTAG,0.596 z-score
GACGAACTGGGGTTTCGTGACGTGCTA,0.753 z-score
GACGAACTGGGGATTCGAGACGTGCTA,-0.357 z-score
TCAGAACTCAACTGTCTGACTGTGCTA,-0.125 z-score
TTAGGTATCCTTCTTCTTTAGTGCTAG,1.17 z-score
TTAGATTCCCGTTTCGATTAGTGCTAG,3.67 z-score
TTAGGAGTGGGTCTCGGTTAGTGCTAG,1.46 z-score
AAATATATACAAACTAAGGATGTGCTA,0.112 z-score
TCATAATTTACTTTGGTACTGTGCTAG,0.376 z-score

# Series 2 — method: RNA Bind-n-Seq; form: RNA; matrix: in vitro; concentration: 365 nM; relative to: no-protein control; direction: higher = stronger binding
# Target: RNA binding protein fox-1 homolog 2, RRM domain, GST-SBP tag (RBFOX2, Homo sapiens, UniProt O43251-10, residues 100-194)
# Setting: natural RNA segment, single round, ends assumed
# Constant ends, left off below: GGGAGUUCUACAGUCCGACGAUC … UGGAAUUCUCGGGUGCCAA
# Target sequence (chain): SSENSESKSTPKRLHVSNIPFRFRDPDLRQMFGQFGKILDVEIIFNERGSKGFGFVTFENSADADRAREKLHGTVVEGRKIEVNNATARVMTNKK
Oligonucleotide,RBNS enrichment (R)
AAUCAAGAGCUGAAGGCCAGUGUUGAGAGACAUGCCUAGUGGCCUUUGCAGAGACGUGGGGAUCAAGCCCAGGAGGGAGGGGAGUGUCGCUCUCCCACGCCUGGACUGAG,0.289
AGAGCAUGAUCAUAAAGGCUAUUUUGACAGUUCAUUUUAACAUUUAGAGUUGAUAAGGGUUUAUAUCUCAUCUGUCCAUAUUGUUUGCAAAGGAACAAGGUUUUAUGUAG,0.346
UUUAUUUUAUGUGUAUGACUGUUUGCCUACGUGUAUAUAUGUGCACCACCUGUGUGCCUGGUGUCUGUAGAAGCCAGCAGGAGGCUGUUAGAUCUCCUGGGCCGGGCGUU,0.613
GCACAGCGACCUCCAGGGCACCUCUGCGGAGUGACUAGCCACAGGCAGAGCUGCAUUGUGGUAUAUAUACUGAGAGAUCUGCAUUGUUCACCUGCCAGACUGGGAUUUUC,0.401
AGCCUCAAGGACACACUUUCCAGAUCGCCUCUAGAAGGGAGAGGAGAUCCCGUCACUAUCUGGCAAAUGCACCAUGCGGCCAGGCUGCAGGGGCUCUGGGCAUGCUGUGC,1.47
GUUGGAUAUAAAUAGGAAUUUUUACACAUUACUAUUGUGAAUGGUGAAUGUUCAUGUAUGACCUACUUGUAAUUAACUUGAGUUGUAGUCCACAGCCUCAGGACAAAUGU,0.359
UGCUGCAGGGAUGGAGUGGCGUUUUCUUAUUGCUGUAUGUAUUGUACAUAGUGGAGUAGUUAGUUACCUGAUAACAGUCUUGUUAUUUGGGUCUCUUAGACCUUACCUCU,0.364
AUUGAUUUUAACCCUGAGGUUACAAAGCAGAAGUUAAAUGAACAGCUAGAGGAAGCAGCCUUCCCACACGUCAGCACCGUAUGCUAAUUUGCUGGAACAGGACGGUUUGG,1.78

# Series 3 — method: universal PBM; form: double-stranded DNA, one strand shown; matrix: in vitro; concentration: not given; direction: higher = stronger binding
# Target: Sal-like protein 4, full length isoform B (SALL4, Homo sapiens, UniProt Q9UJQ4-2, residues 1-616)
# Setting: 8-mer, flanks averaged, mean of replicates
# Target sequence (chain): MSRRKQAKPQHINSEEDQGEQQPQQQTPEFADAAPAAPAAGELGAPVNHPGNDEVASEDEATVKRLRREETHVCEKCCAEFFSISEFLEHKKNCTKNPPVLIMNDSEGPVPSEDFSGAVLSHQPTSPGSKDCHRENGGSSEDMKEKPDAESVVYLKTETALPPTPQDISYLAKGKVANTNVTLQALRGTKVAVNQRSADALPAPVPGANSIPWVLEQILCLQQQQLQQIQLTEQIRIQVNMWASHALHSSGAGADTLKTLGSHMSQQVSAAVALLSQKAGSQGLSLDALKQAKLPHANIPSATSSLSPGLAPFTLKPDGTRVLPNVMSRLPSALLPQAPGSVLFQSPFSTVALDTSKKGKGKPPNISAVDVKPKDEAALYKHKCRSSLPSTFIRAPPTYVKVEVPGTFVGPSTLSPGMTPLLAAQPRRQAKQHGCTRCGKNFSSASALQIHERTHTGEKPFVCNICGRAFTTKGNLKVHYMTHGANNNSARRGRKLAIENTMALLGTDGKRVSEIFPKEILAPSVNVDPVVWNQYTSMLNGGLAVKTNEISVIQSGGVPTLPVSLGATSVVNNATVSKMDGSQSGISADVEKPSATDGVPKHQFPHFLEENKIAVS
Oligonucleotide,E-score
CCCTGACC,-0.287
GGGATAAA,0.154
AGTACCTA,0.186
ATAATGGC,0.127
CGTCTACA,-0.116
AGCTCACC,-0.199
ACCGAAAT,0.0965
GTCGTCCA,-0.0975
CGCTTAGA,-0.18
CAAAGTTA,0.239
ACCGGCCT,-0.286
CAGCTGTA,-0.196
CATCCTCA,-0.0934
GACTGATA,0.0448
ACAAGACA,0.145
GGGTCAAC,-0.171
ACCTTCCT,-0.14
CTGCCTAA,-0.128
ACAAGTAA,0.224
ACTGCTCC,-0.231
ACGTGCCC,-0.221
ATGATGTG,0.119
AGTGGAAA,0.0734
AGCTTACT,-0.0096
AGTGGGCA,-0.0782

# Series 4 — method: protein binding microarray; form: double-stranded DNA, one strand shown; matrix: in vitro; concentration: not given; relative to: not given; direction: higher = stronger binding
# Target: Histone acetyltransferase KAT6A, winged helix 2, GST fusion (KAT6A, Homo sapiens, UniProt Q92794, residues 85-181)
# Setting: 8-mer, flanks averaged, mean of 2 arrays, mostly near background
# Target sequence (chain): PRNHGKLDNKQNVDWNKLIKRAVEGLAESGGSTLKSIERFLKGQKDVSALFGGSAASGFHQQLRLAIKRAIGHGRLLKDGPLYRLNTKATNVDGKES
Oligonucleotide,E-score
AAGCCCTC,-0.0563
CTGCAGTC,-0.15
CTGGGACA,0.0718
ATTGGGAG,-0.0955
ACTGTAAA,-0.0397
AAATTTTC,-0.0452
ATAGAGAC,-0.176
ATATAGTG,-0.0312
CCCTCGCC,0.0805
GTGTAATA,-0.0694
AACACTAA,-0.0229
CCGTTACG,-0.104
ATGGTCGG,0.0476
ACAATAGC,-0.127
CATTCAGA,-0.0765
CGTGCTAG,-0.204
CTTATCAC,-0.0513
ACGTGTCC,-0.186
CCATCCGC,0.197
ACTTATCT,-0.0744

# A few entries again (series 4):
Oligonucleotide,E-score
CATTCAGA,-0.0765
CCATCCGC,0.197
ATATAGTG,-0.0312
AACACTAA,-0.0229
ACTTATCT,-0.0744
CCGTTACG,-0.104
CCCTCGCC,0.0805
ATGGTCGG,0.0476
CGTGCTAG,-0.204
CTGGGACA,0.0718
CTGCAGTC,-0.15
